Published values from different studies.
Compare with care: the assays were run in different laboratories. Several values in a cell are separate wells, animals, samples, runs or records. ± gives the spread as reported.

`O=NN1CCN(C2CCCC2)CC1` — result for “revertant colonies per plate”: 15 ± 5 (Salmonella typhimurium; mutagenicity, Ames plate incorporation; TA1537; 50 µg/plate, 3 d, without S9, methanol).
`CC(C)C(=O)O[C@H]1[C@H](C)OC(=O)[C@@H]1Cc1ccccc1` has an LC50 of greater than 1.9 µg/mL (Oncorhynchus mykiss; mortality, static-renewal water exposure; 96 h).
`CC(C)CC(=O)OC[C@H]1O[C@@](C#N)(c2ccc3c(N)ncnn23)[C@H](O)[C@@H]1O` has a selectivity index of greater than 222 (human respiratory syncytial virus; viral replication, viral protein ELISA; HEp-2, A2; 5 days; relative to: CC50 over EC50).
For `[Cl-].[Cl-].[Pt+2].[Ru+2].c1ccc(-c2nc3cc4ccccc4cc3nc2-c2ccccn2)nc1.c1cnc2c(c1)ccc1cccnc12.c1cnc2c(c1)ccc1cccnc12`, the survival rate was 93.3 ± 3% (Danio rerio; embryos; 30 µM, 12 h).
`CC(=O)N1CCC(C(=O)N2CCN3C(=O)c4cc(-c5ccccc5)ccc4NC(=O)C3C2)CC1` (stereo not drawn) — result for “revertant fold increase”: 1.2 (Escherichia coli; WP2 uvrA; 5.0 µg/plate, with rat liver S9; relative to: vehicle).
`CNC(=O)c1c(N(C)N=O)ncn1C`: “revertant colonies per plate” 16 ± 3 (Salmonella typhimurium; mutagenicity, Ames plate incorporation; TA1535; 500 µg/plate, without S9, methanol).
For `C[C@@H]1OC(=O)[C@H](Cc2ccccc2)[C@H]1O`, the LC50 was greater than 9.8 µg/mL (Oncorhynchus mykiss; mortality, static-renewal water exposure; 96 h).
With `OC(CCN1CC=C(c2ccc(F)cc2)CC1)c1ccc(F)c2ccccc12` (stereo not drawn) the survival was 84.2% (Salmonella typhimurium; SOS/umu test; TA1535/pSK1002; 0.016 mg/mL, 4 h, without S9, lower range).
`CC[C@H](C)[C@@H]1NC(=O)[C@H](CO)NC(=O)[C@H](CCSC)NC(=O)CNC(=O)[C@H](C)NC(=O)[C@H]([C@@H](C)CC)NC(=O)[C@@H](NC(=O)[C@@H](NC(=O)[C@@H](NC(=O)[C@H](C)NC(=O)[C@H](CCCCN)NC(=O)[C@H](C)NC(=O)[C@H](Cc2c[nH]c3ccccc23)NC(=O)[C@H](CC(=O)O)NC(=O)[C@@H](NC(=O)[C@@H](NC(=O)[C@@H]2CSSC[C@H](NC(=O)[C@H](Cc3ccc(O)cc3)NC(=O)[C@@H](NC(=O)CNC(=O)[C@H](CC(N)=O)NC(=O)CNC(=O)[C@H](Cc3ccc(O)cc3)NC(=O)[C@H](Cc3ccc(O)cc3)NC(=O)[C@H](CCCCN)NC(=O)CNC(=O)[C@H](CO)NC(=O)[C@H](Cc3c[nH]cn3)NC(=O)[C@@H](NC(=O)[C@@H](N)[C@@H](C)O)[C@@H](C)O)C(C)C)C(=O)N[C@@H]([C@@H](C)O)C(=O)N[C@@H](CCCCN)C(=O)N[C@@H](CC(N)=O)C(=O)N[C@@H](CCCCN)C(=O)N2)[C@@H](C)O)C(C)C)[C@@H](C)O)[C@@H](C)O)CSSC[C@@H](C(=O)O)NC(=O)[C@H](CCCCN)NC(=O)CNC(=O)[C@@H]2CCCN2C(=O)[C@H]([C@@H](C)CC)NC(=O)[C@H](C)NC(=O)CNC(=O)CNC(=O)[C@H](CC(C)C)NC(=O)[C@H](Cc2ccccc2)NC(=O)CNC(=O)CNC1=O` (single isomer, unassigned): “MIC after heating” greater than 6 µg/mL (Pediococcus damnosus; CECT 4797; 30 min, 80 °C).
With `Fc1ccc(C2=CCNCC2)cc1` the survival was 97.5% (Salmonella typhimurium; SOS/umu test; TA1535/pSK1002, TGA medium; 0.25 mg/mL, 4 h, with: 10% rat liver S9).
With `[Cl-].[Cl-].[Pt+2].[Ru+2].c1ccc(-c2nc3ccccc3nc2-c2ccccn2)nc1.c1cnc2c(c1)ccc1cccnc12.c1cnc2c(c1)ccc1cccnc12` the hatching rate was 20 ± 4.4% (Danio rerio; embryos; 60 µM, 72 h).
`Cc1cc(C(=O)NC(C)(C)COc2cccc3c2C(N)=NS(=O)(=O)N3)cc(C)n1` has a revertant ratio of 1 (Escherichia coli; Ames test, initial; WP2 uvrA; 5.00 µg/plate, with: rat liver S9; relative to: solvent control).
`COc1ccnc(C(=O)O)c1O` gave an LC50 of greater than 10 µg/mL (Oncorhynchus mykiss; mortality, static-renewal water exposure; 96 h).
With `O=[N+]([O-])c1ccc(N2CCN(CCC(O)c3ccc(F)cc3)CC2)c(C(F)(F)F)c1` (stereo not drawn) the survival was 102% (Salmonella typhimurium; SOS/umu test; TA1535/pSK1002; 0.016 mg/mL, 4 h, without S9, lower range).
`COc1cccc(-c2n[nH]c(SCc3ccccn3)n2)c1OC` — result for “revertant colonies per plate”: 46 (Escherichia coli; Ames test, plate incorporation; WP2 uvrA; 1.0 mg/plate, with rat liver S9).
For `c1cc2ccc3cccc4ccc(c1)c2c34`, “hepatic intrinsic clearance kmet,int” read 17300 h⁻¹ and 23000 h⁻¹ and 20300 h⁻¹ (Oncorhynchus mykiss; IVIVE from liver S9).
For `[Cl-].[Cl-].[Pt+2].[Ru+2].c1ccc(-c2nccnc2-c2ccccn2)nc1.c1cnc2c(c1)ccc1cccnc12.c1cnc2c(c1)ccc1cccnc12`, the survival rate was 86.7 ± 1.9% (Danio rerio; embryos; 30 µM, 24 h).
The induction factor of `O=[N+]([O-])c1ccc(N2CCC(NCCC(O)c3ccc(F)c4ccccc34)CC2)c(C(F)(F)F)c1` (stereo not drawn) is reported as 0.9 (Salmonella typhimurium; genotoxicity, SOS/umu test; TA1535/pSK1002; 0.008 mg/mL, 4 h, with S9, lower range).

Excerpt of the above:
`O=NN1CCN(C2CCCC2)CC1` — result for “revertant colonies per plate”: 15 ± 5 (Salmonella typhimurium; mutagenicity, Ames plate incorporation; TA1537; 50 µg/plate, 3 d, without S9, methanol).
